Measurements gathered from unrelated publications.
A part holds a random share of what one study measured.

Study 1 — method: universal PBM; molecule type: double-stranded DNA, one strand shown; medium: in vitro; tested at: not given; direction: higher = stronger binding
Target: Sal-like protein 4, full length isoform B (SALL4, Homo sapiens, UniProt Q9UJQ4-2, residues 1-616)
Setting: 8-mer, flanks averaged, mean of replicates
Residues (chain): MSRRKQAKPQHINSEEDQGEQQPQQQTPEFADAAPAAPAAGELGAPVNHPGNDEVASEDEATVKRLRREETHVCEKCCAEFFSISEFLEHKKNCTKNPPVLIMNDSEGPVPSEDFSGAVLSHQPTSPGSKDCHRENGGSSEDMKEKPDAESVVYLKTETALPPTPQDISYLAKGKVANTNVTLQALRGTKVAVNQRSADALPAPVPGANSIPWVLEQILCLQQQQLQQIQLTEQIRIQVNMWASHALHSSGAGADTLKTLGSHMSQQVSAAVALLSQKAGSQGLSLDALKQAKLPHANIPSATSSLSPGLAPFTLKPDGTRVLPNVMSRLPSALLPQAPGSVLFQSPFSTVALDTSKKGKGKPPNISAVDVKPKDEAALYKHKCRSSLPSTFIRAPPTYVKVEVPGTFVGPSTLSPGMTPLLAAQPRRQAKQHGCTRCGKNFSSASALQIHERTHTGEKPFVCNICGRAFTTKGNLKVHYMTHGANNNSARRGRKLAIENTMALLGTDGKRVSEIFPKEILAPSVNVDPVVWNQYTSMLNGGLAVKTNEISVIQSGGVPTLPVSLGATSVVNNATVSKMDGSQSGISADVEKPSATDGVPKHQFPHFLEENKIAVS
Strand	E-score
GGCCCTCA	-0.227
CGCTGTTC	-0.177
ATGGGACC	-0.0785
CGATTGCC	-0.145
ATCGATTA	0.175
CGTTAACA	0.0434
TCAATTCA	0.21
GATCGCGA	-0.0101
AGTCGGCG	-0.187
GACGTAGC	0.00755
ACCGTGTG	-0.181
AAGAAATG	0.156
ACGGCATG	-0.0131
CGCGTACA	0.0315
CAAAACGA	0.132
AGGGGCAA	-0.12
AGCATACC	-0.00605
CGAAGGGA	-0.209
GTCAATTA	0.222
AGAGACCC	-0.165
GCCTATAC	0.041
ACCCTCGT	-0.251

Study 2 — method: RNA Bind-n-Seq; molecule type: RNA; medium: in vitro; tested at: 1 µM; setting: whole 134-nt RNA, ends assumed; with: 150 mM KCl; reference: input library; direction: higher = stronger binding
Target: Ras GTPase-activating protein-binding protein 1, RRM domain (G3BP1, Homo sapiens, UniProt Q13283)
UniProt Q13283, sequence (whole entry, looked up): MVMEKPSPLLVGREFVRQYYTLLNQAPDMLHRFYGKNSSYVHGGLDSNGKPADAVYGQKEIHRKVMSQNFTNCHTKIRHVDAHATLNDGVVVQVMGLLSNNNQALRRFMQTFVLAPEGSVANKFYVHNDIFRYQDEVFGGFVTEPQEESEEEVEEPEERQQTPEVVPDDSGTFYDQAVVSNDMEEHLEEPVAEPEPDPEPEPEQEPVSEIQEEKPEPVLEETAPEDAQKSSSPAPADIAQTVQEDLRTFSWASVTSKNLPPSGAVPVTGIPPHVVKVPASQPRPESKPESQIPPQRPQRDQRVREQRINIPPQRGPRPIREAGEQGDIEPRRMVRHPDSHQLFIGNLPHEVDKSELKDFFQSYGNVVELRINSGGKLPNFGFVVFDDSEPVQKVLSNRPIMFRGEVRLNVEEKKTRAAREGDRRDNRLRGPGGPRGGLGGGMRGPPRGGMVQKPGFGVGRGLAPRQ
Constant ends, left off below: GGGAGUUCUACAGUCCGACGAUC … UGGAAUUCUCGGGUGUCAAGG
Strand	log2 enrichment
CACAGACAACACGCACCCACACAGACACAGAGGGAAGGGGUUGGGAUAGGGACAGGGUGCACAGCAGGGCGGGGUAGGACCCCAGCCCCU	-0.0841
UCCUGUGCUACACAUCGUAUGUACCGAAUCGGAAAAAAGGGAAAAAAGGAAAAAAGGGGAAAGUAUUAUGUUACGCCGUUCGGAUCUGCA	0.0785
GAGCAAAGAGCCAUUCAGCUUCAGUCUUUACAUACCAUGAAUAAAACAUUAAAACAUCAUAUGGAGAAGUUUACAUGGUGAUUGUUCACC	-0.0859
UCCUGUGCUACACAUCGUAUGUACCGAAUCGGUUUUUGGGGUUUUUGGGGUUUUUGGGGAAAGUAUUAUGUUACGCCGUUCGGAUCUGCA	0.0125
CACAGACAACACGCACCCACACAGACACAGAGGGAAGGGGUUGGGAUGGGGACAGGGUGCACACCAGGGCGGGGUAGGACCCCAGCCCCU	0.145
UCCUAGUAUUCUGGCCGUUCAGAGAUCUGCAAUCCUCAAGAAGCAGCAACAGCAGCAGCAGCAACAACAACAUCAAGCCUCAUCUAAUAG	-0.00926
UCCUGUGCUACACAUCGUAUGUACCGAAUCAAACCCCCCCAAAUUUUUAAAUUUUUAAAAAAGUAUUAUGUUACGCCGUUCGGAUCUGCA	-0.427
GCAGGAAGUAAAAACAAAUGGAAAUGCUUCGGAUAGUGGCAGGGGUGGGGCUUGCUAAGGAAAGGGUGGGAUGGGAGUGGGUAAAGAGUU	1.22
UCCUCAAGUCCUGUGCUACACAUCGUAUGUACCGAAUCGGGCGGCGGGCGGGAAAGUAUUAUGUUACGCCGUUCGGAUCUGCACUUCCAG	-0.0214
UGGGAGGUGGAUUUUGUUUAUUUUUUUAGCUCAUUUCCAGGGGUGGGAAUUUUUUUUUAAUAUGUGUCAUGAAUAAUGUUGUUUUUGAAA	0.863

Study 3 — method: EMSA with sequencing; molecule type: double-stranded DNA, one strand shown; medium: in vitro; tested at: 10 and 20 nM; reference: negative control set to 0; direction: higher = stronger binding
Target: Hepatocyte nuclear factor 3-alpha (Foxa1, Mus musculus, UniProt P35582, residues 1-468, full length assumed)
Setting: whole designed probe, mean of two concentrations, ends assumed
Constant ends, left off below: GTGAGCGGTGCCCATTGATGGGGAAC … TTTCACTGGGATCGTGGGGAC
Construct (chain): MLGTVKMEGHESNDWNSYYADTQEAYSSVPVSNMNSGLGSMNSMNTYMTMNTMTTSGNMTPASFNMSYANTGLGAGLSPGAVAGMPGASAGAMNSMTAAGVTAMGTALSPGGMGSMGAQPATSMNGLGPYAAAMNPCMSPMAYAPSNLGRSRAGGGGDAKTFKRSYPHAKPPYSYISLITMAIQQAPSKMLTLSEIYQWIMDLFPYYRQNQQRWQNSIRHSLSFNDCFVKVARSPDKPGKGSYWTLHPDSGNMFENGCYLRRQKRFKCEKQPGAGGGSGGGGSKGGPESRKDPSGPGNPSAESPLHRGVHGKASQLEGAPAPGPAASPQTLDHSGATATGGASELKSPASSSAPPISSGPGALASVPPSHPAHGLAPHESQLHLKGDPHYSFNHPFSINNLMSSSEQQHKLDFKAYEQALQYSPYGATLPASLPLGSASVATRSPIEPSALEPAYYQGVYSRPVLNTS
Strand	normalised bound fraction [ratio]
TACTGGTTATAAGGAGAAGAGGCTAACAACTGTAGTAGTCTCAGATTGCTACAATTTTACACTATGAAATATGAGTGCCACAGATTTTCAGAGTAAACATGGGAGAGTAATCTAAAATAATGTGAAAATAAATCTCTAGTTAGATAGGAGTATCAGGAGAAAAGGCACAAGCAAGCATGCAAAGTGGAAAAAA	0.181
ACAGCCTGGTAATACCTCAGGTTCCCAAGAACTCCAGGGCCTGTAAACATGCCAGTCACACGTGGGCCTGCTTAGAAGGCCGATGGCCTTTGAGTAATTTATCTACACCTTGCATAAATCTCTGCACTTTGAGTGGCAAAGAGGCCATTCCCTGAGGGTGACTTGGAAAACCAGAGGTGCAGTGACTCAGCCT	-0.0502
ACATTCACTCACCATTCACTTACTGACTCACCTAGAGCAACTTTCAGTCCTGCAAGCTCCATTCATGGTAAATGCCCTGTACAGGTGTACCATAGATTACTTTTTATACCTTTTTTTTTTTTTTTTTTTGAGATGGAGTCTTGCTCTTGTCACCCAGTCTGGAGTGCAATGGTACAATCTTGGCTCACTGCAA	-0.0339
TCCTTTATCCCAACAAGATTATACAGACAAAACCAGGTTAAAATCGACACAAGGTCAACTTGAAATGGGGAAAGAGGAAGGTGACGTCACAAAATAATCTTGAAGTCTTGTGTACAAGCATCTGCAGAAGAGTTCAGCCTCACCACTTGGGTAATGCTGTTGGAATGTGGTCTGGGTTCACTGTATTTGAATG	-0.00369
TGATGAAAACCAATACATGTAATTTTAAAATAAAGCAAGGACAATTATTTTTCAATAATTTCAATAGAATTAATAGAATAGGAAAGGAGTCCTGTTTACATTGTTTTTGTTGTTCTTGAAGCTCTGGCTTTCCTACAGACATGGCCTCAATAATCTTTCAACAGCACCCTGACGTAGACAAGGTGCACAGGGT	0.211
ATCTTCCCCCTCTTCCTTGCCCCACCAGCTCACCTTCCCGGGTTATTTGCACAAAGGAAAATAAATAAAGCCGGCATTCGTTAACGCAGTTCTGGCGCAAACTGCTGTTTGCTCTGGATGAATCATGGTCCTTTGGCGAGGCGTGGCTCCGGGAGAGCAAAGCACCGTGTCAGGGCCATGATCCGGGCTCGCC	0.374
TCTTTCACTCAAGTGGTATATCCCACAGCCCTAAAGAAGCAAGGGAAATAAGAATTAGAACTAGACATCCCAGGAGACAAAGAATTCAACAAAGCAAACATTAACCAATCCCCACTTCCTGCTTCACTATTTACAGAAAATCTCTCTGGCTCAGGCCGGGCAGTGAGTTCATTTATTTCAACAAAATCAAAGA	0.26
AAAAAAAAAAAGTGTGGATAATTCTAAAAGGGTCACAGCTCAGGCCCCATGATGTAAGTCTCTCTGGGAAGGGTGGCGTTGGCCATCACGCTGTGTAAACAGGGATCCCGGGGGCCAGCATCGCACTGCTCTCCATCCCCAGCGAAAGGAAGGGAGGCAGACACTGGGCAGCGGCACTCGGAGTCCACCCAGT	0.347

Study 4 — method: RNA Bind-n-Seq; molecule type: RNA; medium: in vitro; tested at: 365 nM; reference: no-protein control; direction: higher = stronger binding
Target: RNA binding protein fox-1 homolog 2, RRM domain, GST-SBP tag (RBFOX2, Homo sapiens, UniProt O43251-10, residues 100-194)
Setting: natural RNA segment, single round, ends assumed
Constant ends, left off below: GGGAGUUCUACAGUCCGACGAUC … UGGAAUUCUCGGGUGCCAA
Residues (chain): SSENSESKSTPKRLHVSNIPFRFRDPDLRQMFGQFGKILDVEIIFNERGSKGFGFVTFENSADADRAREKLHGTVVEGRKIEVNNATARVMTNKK
Strand	RBNS enrichment (R)
CCAGACUGGUACUUGAGUCCUUCUCAUGGGUGGGGUGAUUGCCUCUUCUCAUCAGGAGCCAGGAGAGAGGGGGACAGAUAGGAGGUGGCCCAUAGGAGCAGUCCCGCUGC	0.443
ACUUUUGUACUUUAUUACGAGUAAAGUGUAAUGAGUACUGUGGAAACCAAAUUUGAAUACUGCAAAUUUGUAGGAGUUACUAGGUUAGCAAUUAGUCCAUACAUCCAUAA	0.826
AGAGAACCUCAUCCAUGCCUGGAGAACAUCUAGAAAACCUUCAGCCAGCCUCCAGUGCUGUCGAGAGACCACCUUCCCCCGACCCGGAGGCACUUCCUUGGGGUCUUUCU	0.209
GGUCAAGUUACACGUGAAUUUGUUUUGUGAAGAAGGGAAGCUGGGGCAGGUAACACGCAGAGCCGCCACGUGGAACGGUCUGUCCGCCGGUCUGUCCCGCUUGCCGGGCU	0.421
AGCAGAGGUUUACAGUAAUUACCAACACCCUACACAAGUAAUGUGCCUAUGCCAGCUAAAAGUUUUUCCUGUUACUGCUGUGUUCUUCUUGCUAGAGAAAACAUAUAUUA	0.304
GCAGCACCUUGCCGGCCAGGAGGAGCUGAUGCUGACGAUCUCCCCAACAUCUGAAGGCUUAAAGAACAUUGUCGUUCUUCAGCCCUCCUUGCUUCUCUCAAUACAAUAAG	0.931
CGAUCCAGUGGUAGCCUUUGAUACUCCAAAGUAAUUAUGUUCACCCUCUGUACUAAUGACAUUUACAAUUCUAAAAUUUUAUGAAAUUGAAAUGAAAACUAAGAGUUGUA	0.623
UCGGCAAUGCCCCUUUUGGAGCAUGGAAGGGCUUCAGGGAUGGGGCAGCCUGGAAGGACAGGUGGAGGCUGGUACAGUGACUGUCCCAUGCCUGCCAUGGCCACAGGCUC	0.862
GCCUCCCCUCCUUUUGAUGCUCAGCCCACUGUGAAGAGUGAGCUUGUUUUGUAAGCCACAUUGGUUCCUGUGAGCAUCUGACCGUCCCCCAUCGAGUAUUUCCCCCGGAA	0.978
UCGCUUGUGCAAAAGGGAAUAGUGCCGUGGAAGUGUGUGUCCAUGGCAGUUUGGACAGGGGUGACUGUUCACACGUAUGGACAGGCCUCGCCUGGGGAGUAAGGCCACCA	0.865
CCUCUCCAGACACAGAGACAUGGGAGUGGGGAGCGGAGCUUGGCCCUGCGCCCUGUGCAGGGAAAGGGAUGGUCAGGCCCAGUUCUCGUGCCCUUAGAGGGGAAUGAACC	1.32
AUGACAUUUUUUAUCUGUAUACUUUUUUGAUGUGAUUGUUUUUUAACAUGCUAAAAGUAAUAAGUAUUUUUGUGUCUUUUAUGUGCAUUUUUUUCAUACGGCAAAAAUGG	1.36

Excerpt of the above (study 1):
Strand	E-score
CGCTGTTC	-0.177
ATCGATTA	0.175
GTCAATTA	0.222
GATCGCGA	-0.0101
